Results of several laboratories.
Each line is one published result; not all experiments were run side by side.
CTSL: Procathepsin L (CTSL, Homo sapiens, UniProt P07711)
Sequence of UniProt P07711 (whole entry, looked up): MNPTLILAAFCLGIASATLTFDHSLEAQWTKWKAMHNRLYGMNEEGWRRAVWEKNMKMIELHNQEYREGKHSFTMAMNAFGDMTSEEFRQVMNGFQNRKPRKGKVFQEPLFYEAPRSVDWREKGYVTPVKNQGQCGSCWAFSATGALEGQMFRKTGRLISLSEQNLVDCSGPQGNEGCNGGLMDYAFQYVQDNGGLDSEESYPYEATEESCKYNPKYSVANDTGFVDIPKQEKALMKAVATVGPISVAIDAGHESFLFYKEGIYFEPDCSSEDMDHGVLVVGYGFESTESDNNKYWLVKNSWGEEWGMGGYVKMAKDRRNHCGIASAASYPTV
Sequence of UniProt P53671 (whole entry, looked up): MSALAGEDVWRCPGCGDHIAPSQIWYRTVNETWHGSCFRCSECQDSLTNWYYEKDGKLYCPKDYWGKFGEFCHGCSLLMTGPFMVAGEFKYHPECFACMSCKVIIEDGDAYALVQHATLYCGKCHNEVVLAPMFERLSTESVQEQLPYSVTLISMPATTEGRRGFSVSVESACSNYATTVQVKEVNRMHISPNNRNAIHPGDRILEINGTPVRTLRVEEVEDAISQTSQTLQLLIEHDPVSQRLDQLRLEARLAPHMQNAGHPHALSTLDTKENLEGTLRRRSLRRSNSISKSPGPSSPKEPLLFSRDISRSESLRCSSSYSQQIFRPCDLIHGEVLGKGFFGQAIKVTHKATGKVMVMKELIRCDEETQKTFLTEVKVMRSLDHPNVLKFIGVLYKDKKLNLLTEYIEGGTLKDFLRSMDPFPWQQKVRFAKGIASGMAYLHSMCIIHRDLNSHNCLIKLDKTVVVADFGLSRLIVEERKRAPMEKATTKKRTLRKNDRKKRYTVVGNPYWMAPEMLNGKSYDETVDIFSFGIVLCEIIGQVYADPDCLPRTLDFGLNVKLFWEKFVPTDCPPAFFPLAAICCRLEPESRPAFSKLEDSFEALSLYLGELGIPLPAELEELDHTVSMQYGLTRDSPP
Sequence of UniProt Q86UX6 (whole entry, looked up): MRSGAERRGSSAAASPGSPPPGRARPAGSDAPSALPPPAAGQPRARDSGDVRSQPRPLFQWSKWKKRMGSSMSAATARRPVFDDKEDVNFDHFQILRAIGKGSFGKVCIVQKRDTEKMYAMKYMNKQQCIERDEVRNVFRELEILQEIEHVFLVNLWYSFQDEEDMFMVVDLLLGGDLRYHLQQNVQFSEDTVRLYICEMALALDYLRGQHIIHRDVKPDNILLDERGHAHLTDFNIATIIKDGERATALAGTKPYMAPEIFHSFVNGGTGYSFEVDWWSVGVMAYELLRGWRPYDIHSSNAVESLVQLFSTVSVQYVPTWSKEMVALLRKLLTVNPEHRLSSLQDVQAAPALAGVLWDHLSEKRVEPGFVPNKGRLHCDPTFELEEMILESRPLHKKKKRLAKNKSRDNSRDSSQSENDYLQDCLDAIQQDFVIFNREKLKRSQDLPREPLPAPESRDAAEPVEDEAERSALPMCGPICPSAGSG
Sequence of UniProt Q9H8M2 (whole entry, unmodified, looked up): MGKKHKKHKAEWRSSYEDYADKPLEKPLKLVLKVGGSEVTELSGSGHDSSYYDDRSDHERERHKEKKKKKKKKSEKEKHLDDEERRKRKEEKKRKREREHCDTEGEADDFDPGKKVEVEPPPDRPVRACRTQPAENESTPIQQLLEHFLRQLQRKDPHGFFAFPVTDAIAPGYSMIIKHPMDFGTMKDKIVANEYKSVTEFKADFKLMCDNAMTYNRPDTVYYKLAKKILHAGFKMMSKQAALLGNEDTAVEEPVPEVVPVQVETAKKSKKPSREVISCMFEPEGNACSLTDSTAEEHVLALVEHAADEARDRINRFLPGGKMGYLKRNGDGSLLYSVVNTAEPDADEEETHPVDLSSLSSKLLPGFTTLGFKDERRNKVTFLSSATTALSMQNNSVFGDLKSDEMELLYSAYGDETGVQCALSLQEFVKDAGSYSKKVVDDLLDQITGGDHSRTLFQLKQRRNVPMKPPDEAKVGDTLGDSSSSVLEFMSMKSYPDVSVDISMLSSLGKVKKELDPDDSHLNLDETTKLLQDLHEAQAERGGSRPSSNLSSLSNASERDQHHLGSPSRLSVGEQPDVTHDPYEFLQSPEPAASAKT
Sequence of UniProt Q15418 (whole entry, looked up): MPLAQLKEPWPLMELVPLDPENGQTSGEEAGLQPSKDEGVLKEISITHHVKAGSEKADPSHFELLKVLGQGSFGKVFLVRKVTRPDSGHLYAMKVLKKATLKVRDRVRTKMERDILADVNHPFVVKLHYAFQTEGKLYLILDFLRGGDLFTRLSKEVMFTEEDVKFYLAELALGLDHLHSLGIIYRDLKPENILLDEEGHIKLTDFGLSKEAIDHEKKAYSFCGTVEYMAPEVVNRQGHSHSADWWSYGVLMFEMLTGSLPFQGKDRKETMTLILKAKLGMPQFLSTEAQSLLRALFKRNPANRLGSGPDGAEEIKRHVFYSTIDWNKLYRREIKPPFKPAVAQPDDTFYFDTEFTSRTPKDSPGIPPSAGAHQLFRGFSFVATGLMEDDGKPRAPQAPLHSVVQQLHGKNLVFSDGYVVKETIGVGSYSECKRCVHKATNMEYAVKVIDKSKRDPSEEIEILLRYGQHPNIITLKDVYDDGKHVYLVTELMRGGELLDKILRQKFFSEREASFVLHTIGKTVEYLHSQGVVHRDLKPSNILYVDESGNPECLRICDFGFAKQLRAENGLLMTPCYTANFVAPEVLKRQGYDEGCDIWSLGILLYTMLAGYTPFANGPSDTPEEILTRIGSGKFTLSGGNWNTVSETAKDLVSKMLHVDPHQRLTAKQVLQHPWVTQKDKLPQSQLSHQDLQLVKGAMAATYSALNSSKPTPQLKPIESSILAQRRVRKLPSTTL
Sequence of UniProt Q13153 (whole entry, looked up): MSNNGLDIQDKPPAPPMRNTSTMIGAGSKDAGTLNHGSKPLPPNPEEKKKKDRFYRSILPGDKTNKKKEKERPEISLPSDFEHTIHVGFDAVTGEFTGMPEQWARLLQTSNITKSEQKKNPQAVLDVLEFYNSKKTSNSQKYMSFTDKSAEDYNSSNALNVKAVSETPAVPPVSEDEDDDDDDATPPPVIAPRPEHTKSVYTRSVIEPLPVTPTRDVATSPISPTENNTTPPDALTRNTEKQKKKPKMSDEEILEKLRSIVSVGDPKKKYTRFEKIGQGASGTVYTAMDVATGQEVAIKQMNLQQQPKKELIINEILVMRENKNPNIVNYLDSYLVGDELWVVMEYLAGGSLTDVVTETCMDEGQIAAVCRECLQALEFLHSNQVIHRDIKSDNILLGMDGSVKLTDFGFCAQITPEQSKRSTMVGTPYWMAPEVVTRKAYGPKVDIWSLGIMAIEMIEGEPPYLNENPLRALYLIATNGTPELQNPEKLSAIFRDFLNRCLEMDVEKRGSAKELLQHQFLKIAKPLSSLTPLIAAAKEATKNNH
Sequence of UniProt P35462 (whole entry, looked up): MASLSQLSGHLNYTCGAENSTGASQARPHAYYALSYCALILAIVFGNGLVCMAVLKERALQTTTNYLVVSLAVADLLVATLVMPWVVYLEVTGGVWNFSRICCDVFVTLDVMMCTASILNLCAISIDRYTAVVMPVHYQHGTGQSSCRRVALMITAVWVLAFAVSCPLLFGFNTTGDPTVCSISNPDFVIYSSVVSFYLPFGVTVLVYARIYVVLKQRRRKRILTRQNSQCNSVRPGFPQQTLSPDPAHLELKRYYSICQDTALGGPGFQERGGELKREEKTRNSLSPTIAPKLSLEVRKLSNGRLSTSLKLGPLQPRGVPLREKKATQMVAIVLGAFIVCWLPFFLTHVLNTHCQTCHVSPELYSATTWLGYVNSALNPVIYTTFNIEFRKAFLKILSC
Sequence of UniProt P49841 (whole entry, looked up): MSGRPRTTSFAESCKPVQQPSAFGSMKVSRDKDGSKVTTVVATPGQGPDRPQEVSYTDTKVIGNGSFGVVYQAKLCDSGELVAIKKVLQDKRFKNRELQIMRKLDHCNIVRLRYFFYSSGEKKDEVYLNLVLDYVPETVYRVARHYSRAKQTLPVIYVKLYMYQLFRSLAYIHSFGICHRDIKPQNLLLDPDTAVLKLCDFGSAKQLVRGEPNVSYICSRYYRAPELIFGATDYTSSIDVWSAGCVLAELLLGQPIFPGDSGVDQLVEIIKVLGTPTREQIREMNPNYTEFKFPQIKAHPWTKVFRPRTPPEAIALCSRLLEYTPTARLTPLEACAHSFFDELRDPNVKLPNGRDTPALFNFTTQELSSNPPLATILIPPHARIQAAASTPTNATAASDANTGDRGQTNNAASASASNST
Sequence of UniProt Q70EK9 (whole entry, looked up): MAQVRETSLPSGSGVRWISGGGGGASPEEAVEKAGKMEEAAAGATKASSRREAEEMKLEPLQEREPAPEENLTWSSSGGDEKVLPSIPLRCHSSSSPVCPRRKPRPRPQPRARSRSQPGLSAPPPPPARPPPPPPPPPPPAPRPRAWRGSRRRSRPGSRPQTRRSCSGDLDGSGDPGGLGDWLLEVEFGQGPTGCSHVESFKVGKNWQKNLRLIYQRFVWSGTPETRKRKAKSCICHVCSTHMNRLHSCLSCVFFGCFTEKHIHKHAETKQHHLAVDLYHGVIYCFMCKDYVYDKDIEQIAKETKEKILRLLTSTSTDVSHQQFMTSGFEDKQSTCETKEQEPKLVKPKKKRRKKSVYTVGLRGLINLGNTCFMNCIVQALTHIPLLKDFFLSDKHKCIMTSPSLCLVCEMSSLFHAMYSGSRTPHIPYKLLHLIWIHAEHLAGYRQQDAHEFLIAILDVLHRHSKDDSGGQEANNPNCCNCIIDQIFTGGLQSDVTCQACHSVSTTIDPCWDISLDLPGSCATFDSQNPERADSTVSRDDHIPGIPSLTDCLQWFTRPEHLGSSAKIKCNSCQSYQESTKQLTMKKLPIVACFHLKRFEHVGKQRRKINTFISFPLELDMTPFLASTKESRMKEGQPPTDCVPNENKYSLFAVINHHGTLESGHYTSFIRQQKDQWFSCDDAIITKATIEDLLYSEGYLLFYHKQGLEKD

`CCc1ccc(NS(=O)(=O)c2c(C)[nH]c(C)c2C(=O)N2CCCC2)cc1Cl` gave an Emax of 81% (D(3) dopamine receptor (DRD3, Homo sapiens, UniProt P35462); β-arrestin recruitment, agonist; 90 min).
`O=c1[nH]cnc2c1ncn2[C@@H]1O[C@H](CO)[C@@H](O)[C@H]1O` gave an inhibition of 73% (Ubiquitin carboxyl-terminal hydrolase 51 (USP51, Homo sapiens, UniProt Q70EK9); enzyme activity, inhibitor; 5 µM).
For `CNc1ncc2c(/C=C/C(=O)N3CCC(OC)CC3)nn(Cc3cccc(C(F)(F)F)c3)c2n1`, the remaining activity was 103% (Serine/threonine-protein kinase PAK 1 (PAK1, Homo sapiens, UniProt Q13153); enzyme activity, inhibitor, radiometric; 1 µM).
With `C1=C/COCc2cc(ccc2OCCN2CCCC2)Nc2nccc(n2)-c2cccc(c2)COC/1` the remaining binding was 75% (Epidermal growth factor receptor (EGFR, Homo sapiens, UniProt P00533); binding; 0.1 µM).
For `CC[C@H](C)[C@H](NC(=O)[C@H](CCC(N)=O)NC(=O)[C@H](CC(C)C)NC(=O)[C@H](CCSC)NC(=O)[C@H](CCCCN)NC(=O)[C@H](CO)NC(=O)[C@H](CO)NC(=O)[C@H](CCSC)NC(=O)[C@H](CC(C)C)NC(=O)[C@H](CC(N)=O)NC(=O)[C@@H](NC(=O)[C@@H](NC(=O)[C@H](CO)NC(=O)[C@H](CC(C)C)NC(=O)[C@H](CS)NC(=O)[C@H](CCCNC(=N)N)NC(=O)[C@H](CC(=O)O)NC(=O)[C@H](Cc1c[nH]c2ccccc12)NC(=O)[C@H](Cc1ccccc1)NC(=O)[C@H](C)NC(=O)[C@H](CCC(=O)O)NC(=O)[C@@H](N)CCCCN)C(C)C)[C@@H](C)CC)C(=O)N[C@@H](CC(N)=O)C(=O)N[C@@H](C)C(=O)O`, the inhibition was -24% (Glycogen synthase kinase-3 beta (GSK3B, Homo sapiens, UniProt P49841); enzyme activity, inhibitor, radiometric; 500 µM).
For `CC1OC(OC2C(OC3CCC4(C)C(CCC5(C)C4CC=C4C6CC(C)(C)CCC6(C(=O)OC6OC(COC7OC(CO)C(O)C(O)C7O)C(O)C(O)C6O)CCC45C)C3(C)CO)OCC(O)C2O)C(O)C(OC2OC(CO)C(O)C(O)C2O)C1O` (stereo not drawn), the remaining activity was 127% (CTSL; enzyme activity, inhibitor; 100 µM).
The remaining binding of `C=CC(=O)N1CCC(COCC(=O)N2CCN(c3nc(-c4cnc(N)nc4C(F)F)nc(N4CCOC[C@@H]4C)n3)CC2)CC1` is reported as 96% (Ribosomal protein S6 kinase alpha-1, C-terminal kinase domain (RPS6KA1, Homo sapiens, UniProt Q15418); binding, competition with immobilised ligand; 1 µM).
`COc1ccc(-c2cc(=S)ss2)cc1` gave a remaining activity of 103% (CTSL; enzyme activity, inhibitor; 100 µM).
`Cc1cc([C@@H](C)Nc2ccccc2C(=O)O)c2nc(N3CCC(F)(F)CC3)c(C#N)c(=O)n2c1` gave a remaining binding of 100% (Mast/stem cell growth factor receptor Kit (KIT, Homo sapiens, UniProt P10721, T670I/V559D); binding, competition with immobilised ligand; 10 µM).
`CCCCC(=O)Nc1ccc(-c2ccc3ncn(CCC)c(=O)c3c2)cn1` has a remaining binding of 100% (LIM domain kinase 2 (LIMK2, Homo sapiens, UniProt P53671); binding, competition with immobilised ligand; 0.5 µM).
`COc1cc(C2Oc3cc(C4Oc5cc(O)cc(O)c5C(=O)C4O)ccc3OC2CO)ccc1O` (stereo not drawn) has a remaining activity of 62.6% (CTSL; enzyme activity, inhibitor; 100 µM).
The remaining activity of `COc1cc(-c2cncc3c2CN(C)Cc2cc(N4CCNCC4)ccc2-3)cc(OC)c1OC` is reported as 131% (Serine/threonine-protein kinase 32C (STK32C, Homo sapiens, UniProt Q86UX6); enzyme activity, inhibitor; 1 µM).
For `COc1ccccc1/C=C/C=O`, the remaining activity was 113% (CTSL; enzyme activity, inhibitor; 100 µM).
`Nc1ncnc2occ(-c3ccc(NC(=O)Nc4cc(C(F)(F)F)ccc4F)cc3)c12` has a remaining signal of 0.25% (Tyrosine-protein kinase ABL1, phosphorylated (ABL1, Homo sapiens, UniProt P00519, Y253F); cell-free assay, inhibitor; 20 µM).
For `COc1ccc(OC)c(-c2cc(C(C)=O)n3ccccc23)c1`, the ΔTm was 6.5 to 7.3 °C (Bromodomain-containing protein 9 (BRD9, Homo sapiens, UniProt Q9H8M2); thermal stability, DSF; 200 µM).
